Experimental data from different studies.
B1: pnp 1-763 R430A (Mycobacterium smegmatis, UniProt A0QVQ5); chain MSVVELEDGVYESTAVIDNGSFGTRTIRFETGRLAQQAAGSAVAYLDDETMLLSATTASKNPKDHFDFFPLTVDVEERMYAAGRIPGSFFRREGRPSTDAILTCRLIDRPLRPSFVDGLRNEIQVVVTVMSLDPKDLYDVLAINAASMSTQLAGLPFSGPVGGARIALIDGTWVAFPTVEQLERAVFDMVVAGRIVGDGDSADVAIMMVEAEATENVVELVAGGAQAPTEAVVAEGLEAAKPFIKALCAAQQELADRAAKPAGEYPVFPDYEADVYDAVASVATEALAEALTIAGKTERNDRTDEIKVEVLERLAEPYAGREKEIGAAFRSLTKKLVRQRILTDHFRIDGRGITDIRALSAEVAVIPRAHGSALFERGETQILGVTTLDMIKMAQQIDSLGPENTKRYMHHYNFPPYSTGETGRVGSPKAREIGHGALAERALVPVLPSIEEFPYAIRQVSEALGSNGSTSMGSVCASTLALLNAGVPLKAPVAGIAMGLVSDDVDVDGKVEKRYVALTDILGAEDAFGDMDFKVAGTKDFVTALQLDTKLDGIPSQVLAGALSQAKDARLTILDVMAEAIDRPDEMSPYAPRITTIKVPVDKIGEVIGPKGKMINSITEETGAQISIEDDGTVFVGAADGLSAQAAIDKINAIANPQLPKVGERFLGTVVKTTDFGAFVSLLPGRDGLVHISKLGKGKRIAKVEDVVKVGDKLRVEIADIDNRGKISLVLVAEESAESAESAGDKGAEKAEGAAADVTPAEA
B2: higA 1-104 (Proteus vulgaris, UniProt Q7A224); sequence looked up; chain MRQFKVSHPGEMIARDLEDMGVSGRRFAHNIGVTPATVSRLLAGKTALTPSLSIRIAAALGSTPEFWLRLQSNYDLRQLENQIDTSGIVLYGESNEQQQNAQEH
B3: mpr G120A (Mycobacterium smegmatis, UniProt Q50442); chain MTTPQPYPGMPSQPAPQGVPYPPQQPAKKKRKWPAIVGGVIALMIVGSIFNDDKKDTTPAENTATVAQAPAAAPTKEVPETTATINTPVRDGKFEFVVRSVEPGLSEVGDNPFLNQKAQAQFVIVTLSVQNIGDRPQGFSPSNQKLFDTEGRSFETDTSAQIALDNNDIAVWDNINPGNTVDVSLVYDMPVDAVPASIELHDSMFSGGVTVNLTP
B4: pnp 1-763 R105A (Mycobacterium smegmatis, UniProt A0QVQ5); chain MSVVELEDGVYESTAVIDNGSFGTRTIRFETGRLAQQAAGSAVAYLDDETMLLSATTASKNPKDHFDFFPLTVDVEERMYAAGRIPGSFFRREGRPSTDAILTCALIDRPLRPSFVDGLRNEIQVVVTVMSLDPKDLYDVLAINAASMSTQLAGLPFSGPVGGARIALIDGTWVAFPTVEQLERAVFDMVVAGRIVGDGDSADVAIMMVEAEATENVVELVAGGAQAPTEAVVAEGLEAAKPFIKALCAAQQELADRAAKPAGEYPVFPDYEADVYDAVASVATEALAEALTIAGKTERNDRTDEIKVEVLERLAEPYAGREKEIGAAFRSLTKKLVRQRILTDHFRIDGRGITDIRALSAEVAVIPRAHGSALFERGETQILGVTTLDMIKMAQQIDSLGPENTKRYMHHYNFPPYSTGETGRVGSPKRREIGHGALAERALVPVLPSIEEFPYAIRQVSEALGSNGSTSMGSVCASTLALLNAGVPLKAPVAGIAMGLVSDDVDVDGKVEKRYVALTDILGAEDAFGDMDFKVAGTKDFVTALQLDTKLDGIPSQVLAGALSQAKDARLTILDVMAEAIDRPDEMSPYAPRITTIKVPVDKIGEVIGPKGKMINSITEETGAQISIEDDGTVFVGAADGLSAQAAIDKINAIANPQLPKVGERFLGTVVKTTDFGAFVSLLPGRDGLVHISKLGKGKRIAKVEDVVKVGDKLRVEIADIDNRGKISLVLVAEESAESAESAGDKGAEKAEGAAADVTPAEA
B5: coat protein 2-133 (bacteriophage Qβ, UniProt P03615); chain AKLETVTLGNIGKDGKQTLVLNPRGVNPTNGVASLSQAGAVPALEKRVTVSVSQPSRNRKNYKVQVKIQNPTACTANGSCDPSVTRQAYADVTFSFTQYSTDEERAFVRTELAALLASPLLIDAIDQLNPAY
B6: coat protein self-assembled VLP (bacteriophage Qβ, UniProt P03615); chain AKLETVTLGNIGKDGKQTLVLNPRGVNPTNGVASLSQAGAVPALEKRVTVSVSQPSRNRKNYKVQVKIQNPTACTANGSCDPSVTRQAYADVTFSFTQYSTDEERAFVRTELAALLASPLLIDAIDQLNPAY
B7: protein R140A (Pseudomonas putida, UniProt A0ABM7EIE4); sequence looked up; chain MLRILLIDDTQHKLGRLKAALIEAGFEVTEAPGLTIDLPACVETVRPDVVLIDTDSPDRDVMEQVVLVSRDQPRPIVLFTDEHDPGVMRQAIQAGVSAYIVEGIHAARLQPILDVAMARFESDQALKAQLVARDQQLAEAKRIEQAKGLLMKMKDCNEEQAYTLMRRQAMSRQQKLIQVAEQIIAMHEMLG
B8: EspA native filaments (Escherichia coli, UniProt Q47184); chain MDTSTTASVASANASTSTSMAYDLGSMSKDDVIDLFNKLGVFQAAILMFAYMYQAQSDLSIAKFADMNEASKESTTAQKMANLVDAKIADVQSSSDKNAKAQLPDEVISYINDPRNDITISGIDNINAQLGAGDLQTVKAAISAKANNLTTTVNNSQLEIQQMSNTLNLLTSARSDMQSLQYRTISGISLGK
Sequence of UniProt P32326 (whole entry, looked up): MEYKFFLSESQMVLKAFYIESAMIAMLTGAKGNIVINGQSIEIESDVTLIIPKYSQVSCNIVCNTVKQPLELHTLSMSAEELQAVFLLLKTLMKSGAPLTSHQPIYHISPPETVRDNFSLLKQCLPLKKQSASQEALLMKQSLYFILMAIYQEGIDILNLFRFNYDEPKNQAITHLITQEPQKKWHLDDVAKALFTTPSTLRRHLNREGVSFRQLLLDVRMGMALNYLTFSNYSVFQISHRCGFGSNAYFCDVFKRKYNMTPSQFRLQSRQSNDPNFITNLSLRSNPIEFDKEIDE

| Molecule | target or system | test | test system | setting | how to read | measurement | value |
| --- | --- | --- | --- | --- | --- | --- | --- |
| B1 (pnp 1-763 R430A) | itself | SEC |  |  |  | binding | binds |
| B2 (higA 1-104) | itself | X-ray crystallography |  |  |  | binding | binds |
| B3 (mpr G120A) | itself | cross-linking |  | with: GTP |  | binding | binds |
| insulin human |  | item: EPHA7 mRNA | EcoHIV-infected mouse, brain | i.p., dose not given | reference: PBS | fold change | 1.08 |
| B4 (pnp 1-763 R105A) | itself | SEC |  |  |  | binding | binds |
| B5 (coat protein 2-133) | itself | transmission electron microscopy |  |  |  | binding | binds |
| B6 | itself | transmission electron microscopy |  |  |  | binding | binds |
| B7 (protein R140A) | itself | SEC |  |  |  | binding | binds |
| ureR (Escherichia coli, UniProt P32326) | itself | SEC |  |  |  | binding | binds |
| B8 (EspA native filaments) | itself | AFM imaging |  |  |  | binding | binds |

Some of these lines once more:
| Molecule | target or system | test | test system | setting | how to read | measurement | value |
| --- | --- | --- | --- | --- | --- | --- | --- |
| B5 (coat protein 2-133) | itself | transmission electron microscopy |  |  |  | binding | binds |
